Measurements of several laboratories.
A part holds a random share of what one study measured.
UniProt Q86UE8, sequence (whole entry, looked up): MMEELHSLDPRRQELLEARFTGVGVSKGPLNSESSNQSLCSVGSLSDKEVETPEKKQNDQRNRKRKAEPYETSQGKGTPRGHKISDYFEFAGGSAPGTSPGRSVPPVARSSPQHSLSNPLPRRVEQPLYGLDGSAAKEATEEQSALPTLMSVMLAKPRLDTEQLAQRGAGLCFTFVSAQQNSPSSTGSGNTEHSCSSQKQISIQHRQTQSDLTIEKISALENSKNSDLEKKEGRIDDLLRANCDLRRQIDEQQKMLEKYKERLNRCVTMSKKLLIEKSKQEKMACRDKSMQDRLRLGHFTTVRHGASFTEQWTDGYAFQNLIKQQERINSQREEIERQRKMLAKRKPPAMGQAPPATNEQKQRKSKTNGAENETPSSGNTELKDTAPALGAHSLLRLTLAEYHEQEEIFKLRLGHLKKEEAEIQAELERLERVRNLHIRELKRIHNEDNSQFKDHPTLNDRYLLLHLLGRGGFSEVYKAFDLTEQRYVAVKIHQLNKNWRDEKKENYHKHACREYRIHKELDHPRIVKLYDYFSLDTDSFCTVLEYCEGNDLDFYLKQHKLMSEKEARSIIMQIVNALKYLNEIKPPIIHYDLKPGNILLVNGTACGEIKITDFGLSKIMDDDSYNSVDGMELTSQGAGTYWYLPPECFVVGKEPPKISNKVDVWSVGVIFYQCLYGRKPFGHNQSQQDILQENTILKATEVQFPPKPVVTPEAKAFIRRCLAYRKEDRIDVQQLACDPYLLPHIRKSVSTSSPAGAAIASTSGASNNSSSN
UniProt Q6P2M8, sequence (whole entry, looked up): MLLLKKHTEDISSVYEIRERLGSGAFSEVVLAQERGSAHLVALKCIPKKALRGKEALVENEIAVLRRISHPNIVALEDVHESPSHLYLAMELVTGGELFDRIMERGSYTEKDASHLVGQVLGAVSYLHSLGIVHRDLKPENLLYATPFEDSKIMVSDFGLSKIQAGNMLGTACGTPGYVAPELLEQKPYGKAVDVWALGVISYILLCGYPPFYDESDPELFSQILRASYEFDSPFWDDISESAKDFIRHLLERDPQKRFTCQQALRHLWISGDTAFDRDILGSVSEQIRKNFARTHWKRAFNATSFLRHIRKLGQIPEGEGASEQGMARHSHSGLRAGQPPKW
UniProt P32298, sequence (whole entry, looked up): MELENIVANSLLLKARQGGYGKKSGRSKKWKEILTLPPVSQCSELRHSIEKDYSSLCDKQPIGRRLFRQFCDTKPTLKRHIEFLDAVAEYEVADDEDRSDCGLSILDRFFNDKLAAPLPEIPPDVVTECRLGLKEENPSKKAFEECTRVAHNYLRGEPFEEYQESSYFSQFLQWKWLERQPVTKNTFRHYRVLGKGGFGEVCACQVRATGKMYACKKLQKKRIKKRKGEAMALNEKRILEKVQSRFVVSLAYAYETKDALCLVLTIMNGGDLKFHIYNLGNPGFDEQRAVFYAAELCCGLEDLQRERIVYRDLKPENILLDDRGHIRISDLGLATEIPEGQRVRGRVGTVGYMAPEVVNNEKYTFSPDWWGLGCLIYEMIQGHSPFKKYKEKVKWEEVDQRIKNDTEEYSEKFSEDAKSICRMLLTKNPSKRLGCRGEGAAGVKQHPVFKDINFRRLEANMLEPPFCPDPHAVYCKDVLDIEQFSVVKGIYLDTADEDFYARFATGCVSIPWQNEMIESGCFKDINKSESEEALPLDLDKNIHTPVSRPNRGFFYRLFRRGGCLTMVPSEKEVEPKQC
UniProt Q16832, sequence (whole entry, looked up): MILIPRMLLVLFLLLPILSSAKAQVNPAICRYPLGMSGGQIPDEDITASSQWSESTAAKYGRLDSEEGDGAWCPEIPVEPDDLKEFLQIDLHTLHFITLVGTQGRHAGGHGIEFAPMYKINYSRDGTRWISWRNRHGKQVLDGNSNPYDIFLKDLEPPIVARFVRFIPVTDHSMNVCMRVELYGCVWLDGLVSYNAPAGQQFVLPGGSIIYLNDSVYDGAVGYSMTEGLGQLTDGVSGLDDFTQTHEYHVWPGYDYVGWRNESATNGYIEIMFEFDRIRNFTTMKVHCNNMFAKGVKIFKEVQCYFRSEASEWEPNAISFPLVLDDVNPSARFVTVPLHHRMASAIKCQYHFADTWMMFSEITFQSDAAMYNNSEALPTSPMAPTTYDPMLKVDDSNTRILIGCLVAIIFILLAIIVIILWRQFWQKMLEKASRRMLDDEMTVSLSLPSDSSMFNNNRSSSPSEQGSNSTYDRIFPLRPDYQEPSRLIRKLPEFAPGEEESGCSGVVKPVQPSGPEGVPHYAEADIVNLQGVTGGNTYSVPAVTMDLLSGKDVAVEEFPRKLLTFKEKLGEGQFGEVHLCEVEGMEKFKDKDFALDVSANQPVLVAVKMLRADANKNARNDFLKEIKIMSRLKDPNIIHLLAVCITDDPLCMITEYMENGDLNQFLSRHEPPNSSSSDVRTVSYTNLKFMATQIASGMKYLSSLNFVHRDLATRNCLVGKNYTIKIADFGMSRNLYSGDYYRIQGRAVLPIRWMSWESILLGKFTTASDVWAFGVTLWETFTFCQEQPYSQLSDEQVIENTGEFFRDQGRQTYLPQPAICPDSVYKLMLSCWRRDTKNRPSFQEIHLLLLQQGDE
UniProt O15075, sequence (whole entry, looked up): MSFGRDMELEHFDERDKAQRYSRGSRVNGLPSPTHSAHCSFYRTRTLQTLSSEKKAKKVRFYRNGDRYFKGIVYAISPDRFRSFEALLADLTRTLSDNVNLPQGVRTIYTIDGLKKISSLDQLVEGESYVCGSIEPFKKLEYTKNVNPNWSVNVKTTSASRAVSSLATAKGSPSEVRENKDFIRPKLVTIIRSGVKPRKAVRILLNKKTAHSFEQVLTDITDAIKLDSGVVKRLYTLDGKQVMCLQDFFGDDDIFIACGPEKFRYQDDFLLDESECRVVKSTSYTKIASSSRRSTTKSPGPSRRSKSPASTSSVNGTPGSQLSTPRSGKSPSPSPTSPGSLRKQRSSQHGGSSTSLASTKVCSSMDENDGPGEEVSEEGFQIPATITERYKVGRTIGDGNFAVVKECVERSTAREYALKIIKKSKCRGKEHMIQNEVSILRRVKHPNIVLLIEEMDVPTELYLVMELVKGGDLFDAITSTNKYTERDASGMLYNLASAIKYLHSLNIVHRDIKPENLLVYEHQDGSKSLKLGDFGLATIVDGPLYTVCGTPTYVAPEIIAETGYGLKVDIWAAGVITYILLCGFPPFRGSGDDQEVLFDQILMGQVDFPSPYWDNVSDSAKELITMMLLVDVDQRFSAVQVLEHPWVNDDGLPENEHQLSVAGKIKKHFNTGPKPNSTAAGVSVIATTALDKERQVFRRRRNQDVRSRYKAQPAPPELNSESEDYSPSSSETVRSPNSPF
UniProt Q9HAZ1, sequence (whole entry, looked up): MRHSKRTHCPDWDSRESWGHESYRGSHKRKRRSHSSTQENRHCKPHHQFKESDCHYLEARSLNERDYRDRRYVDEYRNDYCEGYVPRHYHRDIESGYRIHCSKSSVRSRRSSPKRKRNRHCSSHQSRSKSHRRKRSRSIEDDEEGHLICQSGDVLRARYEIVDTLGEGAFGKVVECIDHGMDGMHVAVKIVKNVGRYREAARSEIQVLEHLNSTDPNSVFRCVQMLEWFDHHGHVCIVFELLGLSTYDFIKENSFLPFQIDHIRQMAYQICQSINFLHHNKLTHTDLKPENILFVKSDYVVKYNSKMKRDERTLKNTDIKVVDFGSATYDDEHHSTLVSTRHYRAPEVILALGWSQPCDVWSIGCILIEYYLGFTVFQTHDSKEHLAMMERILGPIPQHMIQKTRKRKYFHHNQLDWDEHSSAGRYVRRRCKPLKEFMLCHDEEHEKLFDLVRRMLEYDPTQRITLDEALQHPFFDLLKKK
UniProt Q92772, sequence (whole entry, looked up): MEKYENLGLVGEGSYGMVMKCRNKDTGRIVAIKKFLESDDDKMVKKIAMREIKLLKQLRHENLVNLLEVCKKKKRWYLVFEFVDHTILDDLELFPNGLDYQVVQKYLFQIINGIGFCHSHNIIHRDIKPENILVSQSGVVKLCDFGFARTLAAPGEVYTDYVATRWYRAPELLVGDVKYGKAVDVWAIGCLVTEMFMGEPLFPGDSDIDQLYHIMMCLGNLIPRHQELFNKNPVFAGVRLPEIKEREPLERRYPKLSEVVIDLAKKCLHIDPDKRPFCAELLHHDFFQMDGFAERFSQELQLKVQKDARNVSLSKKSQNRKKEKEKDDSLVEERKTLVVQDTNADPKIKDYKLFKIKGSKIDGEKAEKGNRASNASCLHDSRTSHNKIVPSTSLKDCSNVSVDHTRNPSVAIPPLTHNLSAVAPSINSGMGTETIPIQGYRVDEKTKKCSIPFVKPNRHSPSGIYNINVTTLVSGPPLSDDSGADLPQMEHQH

Block 1
Target: Calcium/calmodulin-dependent protein kinase type II subunit alpha (CAMK2A, Homo sapiens, UniProt Q9UQM7)
UniProt Q9UQM7, sequence (whole entry, looked up): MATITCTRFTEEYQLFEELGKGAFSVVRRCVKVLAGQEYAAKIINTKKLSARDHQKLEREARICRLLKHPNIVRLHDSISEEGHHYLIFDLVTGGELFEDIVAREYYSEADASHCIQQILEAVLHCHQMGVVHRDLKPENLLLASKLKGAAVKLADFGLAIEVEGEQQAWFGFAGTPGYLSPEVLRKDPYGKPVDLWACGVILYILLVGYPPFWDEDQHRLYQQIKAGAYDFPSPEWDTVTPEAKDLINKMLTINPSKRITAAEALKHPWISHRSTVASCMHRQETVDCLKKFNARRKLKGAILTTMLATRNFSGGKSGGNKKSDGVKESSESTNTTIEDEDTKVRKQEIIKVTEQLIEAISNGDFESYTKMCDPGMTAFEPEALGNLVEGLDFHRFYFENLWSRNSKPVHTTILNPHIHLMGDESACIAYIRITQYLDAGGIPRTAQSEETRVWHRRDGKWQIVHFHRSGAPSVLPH
Observed: enzyme activity
Mode: inhibitor
Tested at: 10 µM
Structure (SMILES)	inhibition [%]
CCCCCCCCCCCCCCCC(=O)OC[C@H](CO)OC(=O)CCCCCCCCCCCCCCC	-18
CCC[C@H](NC(=O)[C@@H]1[C@H]2CCC[C@H]2CN1C(=O)[C@@H](NC(=O)[C@@H](NC(=O)c1cnccn1)C1CCCCC1)C(C)(C)C)C(=O)C(=O)NC1CC1	3
CC1C(=O)CCC1=O	61
Nc1nc(CC(=O)Nc2ccc(CCNC[C@H](O)c3ccccc3)cc2)cs1	-6
C=C(C)[C@@H]1CCC2=CCC[C@@H](C)[C@]2(C)C1	25
CC(C)CC(=O)C(=O)O	-9
COc1cccc2c1C(=O)c1c(O)c3c(c(O)c1C2=O)C[C@@](O)(C(=O)CO)C[C@@H]3O[C@H]1C[C@H](N)[C@@H](O)[C@H](C)O1	7

Block 2
Structure (SMILES): C[C@@H]1CN(c2cc(-c3nn(C)c4ccc(OC5(C)CC5)cc34)ncn2)C[C@H](C)O1
Observed: cell-free assay
Method: competition with immobilised ligand
Tested at: 1 µM
target	remaining binding [%]
Activin receptor type-1-like (ACVRL1, Homo sapiens, UniProt P37023)	63
Mast/stem cell growth factor receptor Kit (KIT, Homo sapiens, UniProt P10721, V559D)	100
Serine/threonine-protein kinase MAK (MAK, Homo sapiens, UniProt P20794)	100
eIF-2-alpha kinase GCN2, C-terminal kinase domain (EIF2AK4, Homo sapiens, UniProt Q9P2K8, S808G)	100
Cyclin-dependent kinase-like 2 (CDKL2, Homo sapiens, UniProt Q92772)	100
Calcium/calmodulin-dependent protein kinase type 1G (CAMK1G, Homo sapiens, UniProt Q96NX5)	82
Serine/threonine-protein kinase DCLK1 (DCLK1, Homo sapiens, UniProt O15075)	64
Serine/threonine-protein kinase tousled-like 2 (TLK2, Homo sapiens, UniProt Q86UE8)	97

Block 3
Cell line: A-375
Tested at: 100 µM
Time: 18 h
SMILES	viability [%]
O=C[C@H](O)[C@@H](O)[C@H](O)[C@H](O)CO	92.6
O=C1[C@H](CC[C@H](O)c2ccc(F)cc2)[C@@H](c2ccc(O)cc2)N1c1ccc(F)cc1	9.63
O=S(=O)(O)c1cc(O)ccc1O	102
CC1CC(OC(=O)C(O)c2ccccc2)CC(C)(C)C1 (centres unmarked)	8.03
O=C(NC1CCN(CCCCC2(C(=O)NCC(F)(F)F)c3ccccc3-c3ccccc32)CC1)c1ccccc1-c1ccc(C(F)(F)F)cc1	11
CCCCC(=O)O[C@]1(C(=O)CO)[C@@H](C)C[C@H]2[C@@H]3CCC4=CC(=O)C=C[C@]4(C)[C@@]3(F)[C@@H](O)C[C@@]21C	8.72

Block 4
SMILES: COc1cc2c(Nc3ccc(Br)cc3F)ncnc2cc1OCC1CCN(C)CC1
Observed: enzyme activity
Mode: inhibitor
Tested at: 0.5 µM
Reference: control
target	remaining activity [%]
Cyclin-dependent kinase 1, with cyclin A (CDK1, Homo sapiens, UniProt P06493)	100
Dual specificity mitogen-activated protein kinase kinase 1 (MAP2K1, Homo sapiens, UniProt Q02750)	105
RAC-beta serine/threonine-protein kinase (AKT2, Homo sapiens, UniProt P31751)	110
Discoidin domain-containing receptor 2 (DDR2, Homo sapiens, UniProt Q16832)	68
Ribosomal protein S6 kinase alpha-4 (RPS6KA4, Homo sapiens, UniProt O75676)	110
Serine/threonine-protein kinase MARK2 (MARK2, Homo sapiens, UniProt Q7KZI7)	107
Serine/threonine-protein kinase Nek3 (NEK3, Homo sapiens, UniProt P51956)	103
Mitogen-activated protein kinase 14 (MAPK14, Homo sapiens, UniProt Q16539)	91.8
G protein-coupled receptor kinase 4 (GRK4, Homo sapiens, UniProt P32298)	102
cGMP-dependent protein kinase 2 (PRKG2, Homo sapiens, UniProt Q13237)	101
Tyrosine-protein kinase TXK (TXK, Homo sapiens, UniProt P42681)	57.5
Serine/threonine-protein kinase MRCK beta (CDC42BPB, Homo sapiens, UniProt Q9Y5S2)	98
Mitogen-activated protein kinase 1 (MAPK1, Homo sapiens, UniProt P28482)	99.1
Serine/threonine-protein kinase DCLK2 (DCLK2, Homo sapiens, UniProt Q8N568)	104
Rho-associated protein kinase 1 (ROCK1, Homo sapiens, UniProt Q13464)	99.4
MAP/microtubule affinity-regulating kinase 4 (MARK4, Homo sapiens, UniProt Q96L34)	99.4
Calcium/calmodulin-dependent protein kinase type 1B (PNCK, Homo sapiens, UniProt Q6P2M8)	99.5
Myosin-IIIb (MYO3B, Homo sapiens, UniProt Q8WXR4)	84.2
Dual specificity protein kinase CLK4 (CLK4, Homo sapiens, UniProt Q9HAZ1)	84.3
Serine/threonine-protein kinase tousled-like 2 (TLK2, Homo sapiens, UniProt Q86UE8)	79.7

Repeated from above (block 4):
target	remaining activity [%]
RAC-beta serine/threonine-protein kinase (AKT2, Homo sapiens, UniProt P31751)	110
Discoidin domain-containing receptor 2 (DDR2, Homo sapiens, UniProt Q16832)	68
Ribosomal protein S6 kinase alpha-4 (RPS6KA4, Homo sapiens, UniProt O75676)	110
Serine/threonine-protein kinase MARK2 (MARK2, Homo sapiens, UniProt Q7KZI7)	107
Serine/threonine-protein kinase Nek3 (NEK3, Homo sapiens, UniProt P51956)	103
Mitogen-activated protein kinase 14 (MAPK14, Homo sapiens, UniProt Q16539)	91.8
G protein-coupled receptor kinase 4 (GRK4, Homo sapiens, UniProt P32298)	102
